Assay results gathered from unrelated publications.
Lines come from different studies, so protocols differ. Values joined by “and” are separate records of one study, mostly repeats; a detail may differ. Numbers after ± are the reported error.

CC(C)n1c(Nc2cccnc2)nc2cnc(Nc3ccc(N4CCN(C)CC4)cc3)nc21  subjects with adverse event (measured: aspartate aminotransferase increased; healthy male subjects; oral, 100 mg, study, with: gemfibrozil): 28.6%
CCOCC(=O)N1CCC[C@H](C(=O)NCc2nc(-c3ccc(C#N)nc3)cs2)C1  unbound hepatic CLint (Sprague-Dawley rat, male, plasma; intravenous, 1 mg/kg): 76 mL/min/kg
COc1cc2nccc(Oc3ccc(NC(=O)c4cc5c(n(-c6ccccc6)c4=O)CCCC5=O)nc3)c2cc1OC  grade ≥3 Hyperkalaemia patients (relapsed or refractory AML; oral, 10 mg once daily): 0%
CCc1c2c(nc3ccc(OC(=O)N4CCC(N5CCCCC5)CC4)cc13)-c1cc3c(c(=O)n1C2)COC(=O)[C@]3(O)CC  increase in Css (Mrp2(-/-) mouse, small intestine; intraperitoneal, 50 mg/kg/day, 24 h, after 6 doses; baseline: FVB wild type): 55%
CN1CCN(C(=O)c2ccccc2N(Cc2ccccc2)S(C)(=O)=O)CC1  Kd (CDK2 (Homo sapiens, UniProt P24941); binding): > 100 µM
COc1cc(Nc2ncc3c(n2)-c2ccc(Cl)cc2C(c2c(F)cccc2OC)=NC3)ccc1C(=O)O  patients with adverse event (measured: increased LDH, all grades; cancer patients, phase 1/2; oral, dose not given, with: pembrolizumab): 25%
C[C@H]1CNC(=O)c2cnn3ccc(nc23)N[C@H](C)c2cc(F)ccc2O1  average steady-state concentration (human, plasma; recommended dose, total): 846 nmol/L
COc1ccc2c(c1)CN(C(=O)CCN1CCC(Cc3ccccc3)CC1)CC[S@@+]2[O-]  QT interval (telemetry; conscious male beagle dogs; intravenous, 8 mg/kg, 2 h): 242 ± 24 ms
Oc1ccc(/C=C/c2cc(O)cc(O)c2)cc1  glycated albumin (rat, azoxymethane-injected, blood at sacrifice; 100 mg/kg): 1.9% and 1.8% and 1.7%
CCOc1c([C@H](C)n2nc(C)c3c(N)ncnc32)cc(Cl)c(F)c1[C@@H]1CNC(=O)C1  ECG observations (measured: QTcF change ≤30 ms; previously treated B-cell malignancy; oral, 5 mg once daily, baseline QTcF ≤450 ms; baseline: baseline): 60%
Cc1nc2cccc(OCC(C)(C)C(=O)NC(C)C)c2c(N)c1C(=O)O  Cmax ratio (Sprague-Dawley rat, plasma; intravenous, 1 mg/kg, day 1; baseline: female over male): 1.29 ± 0.38
O=C(O)CSc1nnc(Br)n1-c1ccc(C2CC2)c2ccccc12  body weight (KM mouse, chronic hyperuricaemia model; dose not given, day 28): 33.2 g and 35 g and 39 g and 40.8 g and 37.4 g and 38 g
C[C@@H](c1ncncc1F)[C@](O)(Cn1cncn1)c1ccc(F)cc1F  drug-related TEAE incidence (measured: Photophobia; human; oral, 200 mg): 0%
CN(C(=O)n1cnc(-c2cccnc2)c1)[C@H]1CC[C@H](O)CC1  concentration (Wistar rat, midbrain; oral, 10 mg/kg/day of BIA 10-2474, 4 h, repeated 5 days): 42.7 ± 7.4 ng/g
O=C(O)CCCCCCCCCCCCC(=O)O  relative peak deviation (human, plasma; endogenous control diurnal; baseline: daily mean concentration): 59.8 ± 14.6%
C=CC(=O)NC1CCN(c2ncc3ncnc(Nc4ccc(Oc5ccc6c(c5)ncn6C)c(C)c4)c3n2)CC1  radioactivity recovered (healthy male volunteers, urine; oral solution, 60 mg, 680 h collection; baseline: dose): 1.3%
C[C@@H](Oc1ccc(S(C)(=O)=O)cc1C(=O)N1C[C@@H]2C[C@]2(c2cc(C(F)(F)F)on2)C1)C(F)(F)F  fed over fasted ratio (measured: AUC0–tz; healthy human volunteers; oral, 10 mg; baseline: fed over fasted): 115%
C[C@@H]1CCO[C@H]2Cn3cc(C(=O)NCc4ccc(F)cc4F)c(=O)c(O)c3C(=O)N12  trough concentration (C24) (human paediatric patients, weight 6 to under sample A kg, plasma; oral, 4.8 mg granules, 24 h, steady state, geometric mean, population PK post-hoc, N 1): 252 ng/mL
C[C@H]1[C@H]2N(C(=O)CN(C)N2C(=O)NCc2ccccc2)[C@@H](Cc2ccc(OP(=O)(O)O)cc2)C(=O)N1Cc1cccc2cccnc12  plasma concentration (human, plasma; intravenous infusion over 4 h, 280 mg/m2, 24 h after dosing): 0 ng/mL
Cc1ccc([C@@H]2O[C@H](CO)[C@@H](O)[C@H](O)[C@H]2O)cc1Cc1ccc(-c2ccc(F)cc2)s1  urinary calcium excretion change (Japanese type 2 diabetes patients; 100 mg, day 17, 24 h urine collection; baseline: baseline): -12.7 mg
C[C@@H](Oc1ccc(S(C)(=O)=O)cc1C(=O)N1C[C@@H]2C[C@]2(c2cc(C(F)(F)F)on2)C1)C(F)(F)F  faecal excretion (measured: 14C radioactivity; human, faeces; oral, 25 mg, 0 to 677 h, geometric mean; baseline: dose): 48.3%
COc1cccc2c1C(=O)c1c(O)c3c(c(O)c1C2=O)C[C@@](O)(C(=O)CO)C[C@@H]3O[C@H]1C[C@H](N)[C@H](O)[C@H](C)O1  hemolysis (red blood cells; 20 ppm, 1 h): 24.5%
CCc1cc(C(=O)NC)c2nccc(N3CCc4c(cc(Cn5ccnc5)cc4-c4cn(C)nc4C(F)(F)F)C3=O)c2c1  spleen weight (Sprague Dawley rat; oral, 50 mg/kg once daily, 7 days): 0.624 ± 0.093 g
CNCc1ccc(-c2[nH]c3cc(F)cc4c3c2CCNC4=O)cc1  dizziness incidence (human patients; oral, 840 mg twice daily, all grades): 0%
COc1ncc(-c2nc3c(n2C(C)C)[C@H](c2ccc(Cl)cc2)N(c2cc(Cl)cn(C)c2=O)C3=O)c(OC)n1  AUC(0-t) geometric mean (human patients, plasma; oral, 350 mg, high-dose arm, cycle 1 day 1): 55100 ng·h/mL
CCn1c(SCC(=O)Nc2ccccc2OC)nnc1-c1ccco1  Kd (Cyclin-dependent kinase 2, with cyclin A (CDK2, Homo sapiens, UniProt P24941)): > 100 µM
O=C(O)c1cc(O)c(O)c(O)c1  elimination rate constant (LC-MS/MS; male Ross broilers, serum; oral, 0.49 mg/kg BW): 7.78e-05 ± 6.39e-05 s⁻¹
N[C@@H]1c2ccccc2OC12CCN(c1cnc3c(N4CCCc5ncccc54)n[nH]c3n1)CC2  AUC(0-tau) (advanced metastatic solid tumour patients, plasma; oral, 75 mg once daily, cycle 1 day 1, geometric mean): 5530 ng·h/mL
CC(C)[C@H](C(=O)Nc1ccc(C(=O)NO)cc1)c1ccccc1  measured concentration (whole blood; 100 ng/mL, 3 h, 4 °C, stability on ice): 109 ng/mL
CCN1/C(=C/C(C)=O)Sc2ccc(F)cc21  QTc interval change (cynomolgus monkey; oral, 10 mg/kg, 1 h post-dose; baseline: pre-dose): 99.8 ± 2.9%
O=C(c1nc2n(n1)[C@H](c1ccccc1)C[C@@H]2F)C1CC1  AUC0-last ratio (human; oral, 75 mg; baseline: high-fat meal over fasted): 1
O=C1CCCCN1c1ccc(CO[C@@H]2COc3nc([N+](=O)[O-])cn3C2)cc1  aqueous solubility (aqueous buffer; pH 7.4): 28.7 µg/mL
CO[C@H]1C[C@@H]2CC[C@@H](C)[C@@](O)(O2)C(=O)C(=O)N2CCCC[C@H]2C(=O)O[C@H]([C@H](C)C[C@@H]2CC[C@@H](OC(=O)NCCOCCOCCOCCOCCOCCOCCOCCOCCC(=O)N3CCc4cc(Cn5nc(-c6ccc7oc(N)nc7c6)c6c(N)ncnc65)ccc4C3)[C@H](OC)C2)C[C@@H](O)[C@H](C)/C=C(\C)[C@@H](O)[C@@H](OC)C(=O)[C@H](C)C[C@H](C)/C=C/C=C/C=C/1C  unbound AUClast (human patients, plasma; intravenous, 8 mg, cycle 1 day 15): 0.0265 µM·h
Cc1cccc(CNC(=O)c2cn(CCNC(=O)c3ccccc3S)c3cc4c(cc3c2=O)OC(F)(F)O4)n1  half-life (Sprague-Dawley rat, male, whole blood; intravenous, 5 mg/kg of parent compound): 5.4 h
CC(C)(C(=O)N1CCOc2c(C#N)cncc2C1)C(F)F  subjects with adverse event (measured: Investigations; human; oral, 20 mg once daily, 14 days, multiple ascending dose): 0%
CO[C@@H]1[C@H](O)[C@@H](CO)O[C@H]1n1c([N+](=O)[O-])nc2c(=O)[nH]c(N)nc21  nucleoside remaining fraction (depurination, RP-HPLC; citrate-phosphate buffer 0.5 mM; 32 min, pH 2, 37 °C): 0.977
O=C(c1cccnc1-c1ccncc1)N1CCC(O)(Cc2ccccc2)CC1  terminal elimination rate constant (healthy Japanese adults, plasma; oral, 100 mg twice daily, day 1): 5.56e-05 s⁻¹
O=C(O)CCCCCCCCCCC(=O)O  relative peak deviation (human, plasma; endogenous control diurnal; baseline: daily mean concentration): 67.9 ± 11.3%
CCc1c(-c2ccccc2)c(-c2ccccc2)nn1-c1ccccc1-c1cccc(OCC(=O)O)c1  concentration (Sprague-Dawley rat, fat; oral, 10 mg/kg, 4 h): 1530 ng/g and 1010 ng/g
CN(C)C/C=C/C(=O)Nc1cc2c(Nc3ccc(F)c(Cl)c3)ncnc2cc1O[C@H]1CCOC1  aqueous solubility (200 mM SBE-β-CD in water; 24 h): 1310 ± 39 µM
[18F]c1ccc(-c2ccc3c(c2)[nH]c2ccncc23)cn1  SUV (microPET/CT imaging; B6SJL mouse, normal, heart; intravenous, 10 min): 0.728 ± 0.19

Repeated from above:
C[C@@H](Oc1ccc(S(C)(=O)=O)cc1C(=O)N1C[C@@H]2C[C@]2(c2cc(C(F)(F)F)on2)C1)C(F)(F)F  faecal excretion (measured: 14C radioactivity; human, faeces; oral, 25 mg, 0 to 677 h, geometric mean; baseline: dose): 48.3%
COc1cc(Nc2ncc3c(n2)-c2ccc(Cl)cc2C(c2c(F)cccc2OC)=NC3)ccc1C(=O)O  patients with adverse event (measured: increased LDH, all grades; cancer patients, phase 1/2; oral, dose not given, with: pembrolizumab): 25%
Oc1ccc(/C=C/c2cc(O)cc(O)c2)cc1  glycated albumin (rat, azoxymethane-injected, blood at sacrifice; 100 mg/kg): 1.9% and 1.8% and 1.7%
